Experimental data gathered from unrelated publications.
Each numbered part is a random draw from the data of one study; scales do not carry over between parts.

Block 1
Target: Alpha-2A adrenergic receptor (ADRA2A, Homo sapiens, UniProt P08913)
Chain of UniProt P08913 (whole entry, looked up): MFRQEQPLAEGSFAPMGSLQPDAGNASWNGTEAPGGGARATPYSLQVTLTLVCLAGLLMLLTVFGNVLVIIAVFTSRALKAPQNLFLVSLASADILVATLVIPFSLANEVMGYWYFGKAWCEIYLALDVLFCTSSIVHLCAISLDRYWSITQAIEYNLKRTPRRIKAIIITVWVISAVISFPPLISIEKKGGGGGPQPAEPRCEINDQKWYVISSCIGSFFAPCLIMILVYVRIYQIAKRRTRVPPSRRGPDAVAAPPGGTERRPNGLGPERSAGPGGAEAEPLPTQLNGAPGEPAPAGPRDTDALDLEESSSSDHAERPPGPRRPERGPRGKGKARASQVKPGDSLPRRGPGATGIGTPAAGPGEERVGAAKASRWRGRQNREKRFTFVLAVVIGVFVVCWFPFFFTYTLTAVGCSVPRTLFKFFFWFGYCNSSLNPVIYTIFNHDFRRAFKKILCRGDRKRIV
Observed: binding
Method: radioligand binding
Tested at: 10 µM
| Structure (SMILES) | inhibition [%] |
| --- | --- |
| Cc1nc(C2CCN(C(=O)c3ccc(OC(F)(F)F)cc3N)CC2)c2ncc(N3CCN(C)CC3)cc2n1 | -6.02 |
| CN(C)C(=O)Cn1cc(-c2nc([C@@](C)(c3ccc(-c4cnc(N)nc4)cc3)C3CC3)no2)cn1 | -3.33 |
| O[C@]1(C(F)(F)F)CCCC[C@H]1Nc1ccc(F)cc1 | -17.7 |
| CC(C)(O)c1cncc(-c2nc3ccc(F)cc3n2C2CC2)c1 | 74.6 |
| CC(=O)Nc1c(F)cc(C(=O)N[C@H]2CC[C@H](O)CC2)cc1O[C@@H](C)c1ccccc1 | -11.7 |
| COc1nc2ccc([C@@](O)(c3ccccc3)C3CCN(C(C)=O)CC3)cc2c(Cl)c1Cc1ccc(-n2cccn2)cc1 | 20.8 |
| O=C(Nc1cnc(Oc2ccc(F)cc2)nc1)N1CCc2ncccc2[C@@H]1c1ccc(F)cc1 | 9.77 |
| COc1cc(-c2cn(C3CCc4ccccc4N(CC(F)(F)F)C3=O)nn2)ccc1-n1ccc(C)n1 (stereo not shown) | 22.2 |
| CC1=C(C#N)[C@@H](c2ccc3[nH]nc(C)c3c2)C(C#N)=C(c2ccc(Cl)cc2)N1 | 7.83 |
| CN1CCN(C(=O)C(C)(C)c2ccc(C(=O)Nc3cn4cc(-c5ccncc5)ccc4n3)cc2)CC1 | 2.61 |
| CC(=O)Nc1nc(CN2CCC[C@H](Cc3cc(C)nc(C)c3)C2)cs1 | 31.7 |
| CNC(=O)Nc1ccc2c(c1)[C@]1(CC2)OC(=O)N(CC(=O)N(Cc2ccc(F)cc2)[C@@H](C)C(F)(F)F)C1=O | -1.4 |
| C[C@@]1(Cc2ccc(C#N)cc2)C(=O)N(c2cc(Cl)cc(Cl)c2)c2ncc(C(=O)NC3(c4nc(C5CCC5)no4)CC3)n21 | 12.1 |

Block 2
Host: human
Medium: microsomes or S9
Tested at: 2 µM
Time: 0.5 h
| Compound | remaining compound [%] |
| --- | --- |
| CC(C)(C)c1csc(NNC(=O)c2ccc(Br)cc2)n1 | 44.1 |
| COc1ccc(C(=O)N2CCC(n3c(C)cnc3C3CCC3)C2)cc1 (stereo not shown) | 72.9 |
| Cc1ccc(-c2nc(C(=O)N=C(N)N)c(C)[nH]2)cc1 | 67 |

Block 3
Cell line: mouse MPNST tumor cells
Method: high-content immunofluorescence imaging
Measured: nuclear SOX9
Tested at: 10 µM
Time: 12 h
Notes: mean of 2 replicates
Reference: DMSO control
Reading: higher = more nuclear SOX9
| SMILES | nuclear SOX9 intensity |
| --- | --- |
| CCN(c1nc(N)c(C(=O)N=C(N)N)nc1Cl)C(C)C | 115 % of DMSO |
| O=C(O)CN(CCN(CC(=O)O)CC(=O)O)CCN(CC(=O)O)CC(=O)O | 96.7 % of DMSO |
| CC(C)(C)c1ccc(-c2nc3c(N4CCN(Cc5ccc6nccnc6c5)CC4)cccc3[nH]2)cc1 | 179 % of DMSO |
| OCCN(CCO)c1nc(N2CCCCCCC2)c2nc(N(CCO)CCO)nc(N3CCCCCCC3)c2n1 | 184 % of DMSO |

Block 4
Target: Hepatocyte nuclear factor 3-beta, forkhead domain (FOXA2, Homo sapiens, UniProt Q9Y261, residues 142-269)
Method: protein-binding microarray
Form: double-stranded DNA, one strand shown
Medium: in vitro
Tested at: not given
Notes: k-mer, scored over probes, only values ≥0.25
Reading: higher = stronger binding
Residues (chain): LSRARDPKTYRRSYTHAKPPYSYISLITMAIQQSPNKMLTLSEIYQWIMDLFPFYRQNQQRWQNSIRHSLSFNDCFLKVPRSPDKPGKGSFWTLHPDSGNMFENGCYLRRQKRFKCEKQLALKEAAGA
| Strand | E-score |
| --- | --- |
| AGCAATAT | 0.26 |
| ACGAATAT | 0.267 |
| CAATGTAA | 0.268 |
| ACAATGAA | 0.325 |
| TACATACA | 0.407 |
| GGTAATTA | 0.266 |
| CTACAGAA | 0.259 |
| AACAAACA | 0.398 |
